Published values from different studies.
Parts stem from different laboratories: compare values within a part only.

Series 1
Target: PABPC1L2, full length, GST fusion (mouse, UniProt A0ABA7IW68)
Method: RNAcompete
Molecule type: RNA
Sample: in vitro
Tested at: 20 nM
Notes: 7-mer, probes averaged, single round
Relative to: mean of 7-mers
Direction: higher = stronger binding
Measurement: 7-mer Z-score
Residues (chain): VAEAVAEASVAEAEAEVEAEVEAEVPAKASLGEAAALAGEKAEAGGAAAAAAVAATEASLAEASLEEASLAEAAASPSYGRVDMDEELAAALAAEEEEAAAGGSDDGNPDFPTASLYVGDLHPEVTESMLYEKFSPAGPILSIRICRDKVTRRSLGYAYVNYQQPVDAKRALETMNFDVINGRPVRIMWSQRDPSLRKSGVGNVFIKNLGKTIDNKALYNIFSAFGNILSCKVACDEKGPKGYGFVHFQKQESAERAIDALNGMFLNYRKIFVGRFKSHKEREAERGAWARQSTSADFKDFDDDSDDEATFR
CCAUCCA: -0.197
CCAUAUC: -0.24
GAACUAG: -0.0518

Series 2
Target: Histone acetyltransferase KAT6A, winged helix 2, GST fusion (KAT6A, Homo sapiens, UniProt Q92794, residues 85-181)
Method: protein binding microarray
Molecule type: double-stranded DNA, one strand shown
Sample: in vitro
Tested at: not given
Notes: 8-mer, flanks averaged, mean of 2 arrays, mostly near background
Relative to: not given
Direction: higher = stronger binding
Measurement: E-score
Construct (chain): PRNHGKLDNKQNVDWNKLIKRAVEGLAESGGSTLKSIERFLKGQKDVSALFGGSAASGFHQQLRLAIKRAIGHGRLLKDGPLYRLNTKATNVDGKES
CAACCGGC: 0.163
CCAAACGA: 0.043
AGACGATG: -0.103
CGCAAGGC: 0.0772

Series 3
Target: Sal-like protein 4, full length isoform A (SALL4, Homo sapiens, UniProt Q9UJQ4, residues 1-1053)
Sequence of UniProt Q9UJQ4 (whole entry, looked up): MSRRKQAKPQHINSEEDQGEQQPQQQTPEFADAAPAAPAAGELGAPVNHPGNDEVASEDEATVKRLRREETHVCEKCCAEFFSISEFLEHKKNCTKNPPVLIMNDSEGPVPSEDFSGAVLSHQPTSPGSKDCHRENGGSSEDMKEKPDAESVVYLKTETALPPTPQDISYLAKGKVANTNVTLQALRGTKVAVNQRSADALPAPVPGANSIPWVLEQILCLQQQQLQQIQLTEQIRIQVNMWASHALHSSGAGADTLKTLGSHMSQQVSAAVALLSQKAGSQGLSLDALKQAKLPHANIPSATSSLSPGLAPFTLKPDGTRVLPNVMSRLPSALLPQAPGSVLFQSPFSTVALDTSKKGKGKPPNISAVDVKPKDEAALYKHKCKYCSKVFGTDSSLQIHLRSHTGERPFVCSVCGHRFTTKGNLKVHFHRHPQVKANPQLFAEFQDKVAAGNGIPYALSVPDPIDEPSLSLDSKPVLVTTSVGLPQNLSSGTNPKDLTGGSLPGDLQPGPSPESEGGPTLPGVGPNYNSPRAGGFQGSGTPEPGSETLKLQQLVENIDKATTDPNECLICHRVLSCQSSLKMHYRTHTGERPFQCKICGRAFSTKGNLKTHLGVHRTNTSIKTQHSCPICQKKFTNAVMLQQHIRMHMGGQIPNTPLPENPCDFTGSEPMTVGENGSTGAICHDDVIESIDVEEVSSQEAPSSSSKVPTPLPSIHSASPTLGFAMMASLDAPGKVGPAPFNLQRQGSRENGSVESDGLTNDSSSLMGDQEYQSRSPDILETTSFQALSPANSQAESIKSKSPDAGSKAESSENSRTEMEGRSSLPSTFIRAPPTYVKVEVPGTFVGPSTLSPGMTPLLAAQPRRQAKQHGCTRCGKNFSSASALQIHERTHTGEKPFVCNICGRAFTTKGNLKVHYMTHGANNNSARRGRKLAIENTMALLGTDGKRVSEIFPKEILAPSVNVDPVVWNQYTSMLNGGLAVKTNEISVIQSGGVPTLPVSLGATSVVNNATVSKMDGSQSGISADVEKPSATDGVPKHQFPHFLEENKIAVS
Method: universal PBM
Molecule type: double-stranded DNA, one strand shown
Sample: in vitro
Tested at: 600 nM
Notes: 8-mer, flanks averaged, mean of replicates
Direction: higher = stronger binding
Measurement: E-score
AACTGCGA: -0.17
GAGATATC: 0.0674
GCGTTACC: -0.248
CGACATAA: 0.199

Mixed results
PhoQ, residues 284 288 289 292 302 303 AGCYAI  fold induction (PhoP, residues 12 14 15 18 19 LHTVL (Escherichia coli, UniProt P23836); Sort-seq, refers to: YFP reporter; E. coli; PhoQ-PhoP variant library, with: 10 µM Mg2+; relative to: high Mg2+ state, higher = stronger signaling): 19.1

Excerpt of the above (series 3):
AACTGCGA: -0.17
GAGATATC: 0.0674
